Measured values from different studies.
Each line is one published result; not all experiments were run side by side. “And” joins repeats or separate records; there may be more than shown. ± marks the error that the study gave.
Chain of UniProt P18669 (whole entry, looked up): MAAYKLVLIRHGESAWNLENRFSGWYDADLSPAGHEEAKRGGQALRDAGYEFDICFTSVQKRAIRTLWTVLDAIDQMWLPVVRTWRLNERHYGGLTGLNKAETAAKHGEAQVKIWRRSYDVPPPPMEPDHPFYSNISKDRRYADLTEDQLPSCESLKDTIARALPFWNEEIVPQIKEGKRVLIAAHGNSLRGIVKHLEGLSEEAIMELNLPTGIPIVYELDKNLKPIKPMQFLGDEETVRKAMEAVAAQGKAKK
Chain of UniProt P05067 (whole entry, looked up): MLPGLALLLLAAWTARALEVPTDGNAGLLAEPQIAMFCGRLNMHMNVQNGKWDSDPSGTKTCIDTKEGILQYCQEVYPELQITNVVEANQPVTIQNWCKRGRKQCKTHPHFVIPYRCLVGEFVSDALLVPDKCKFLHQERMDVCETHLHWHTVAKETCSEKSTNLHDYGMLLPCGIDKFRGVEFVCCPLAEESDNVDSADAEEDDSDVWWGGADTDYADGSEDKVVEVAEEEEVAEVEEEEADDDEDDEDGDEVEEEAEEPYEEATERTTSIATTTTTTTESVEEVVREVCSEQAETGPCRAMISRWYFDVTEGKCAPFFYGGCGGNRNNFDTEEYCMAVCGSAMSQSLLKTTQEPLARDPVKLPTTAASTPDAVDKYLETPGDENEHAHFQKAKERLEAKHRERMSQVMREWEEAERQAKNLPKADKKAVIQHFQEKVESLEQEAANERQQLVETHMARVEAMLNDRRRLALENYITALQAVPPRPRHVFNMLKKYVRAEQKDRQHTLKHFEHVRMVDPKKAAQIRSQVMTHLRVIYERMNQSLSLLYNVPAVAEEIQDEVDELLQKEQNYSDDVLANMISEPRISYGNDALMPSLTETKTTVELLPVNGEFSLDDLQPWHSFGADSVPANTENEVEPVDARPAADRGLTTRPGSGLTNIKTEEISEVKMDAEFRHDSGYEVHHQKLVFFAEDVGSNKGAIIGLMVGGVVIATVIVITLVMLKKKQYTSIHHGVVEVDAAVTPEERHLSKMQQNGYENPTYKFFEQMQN
Chain of UniProt Q15831 (whole entry, looked up): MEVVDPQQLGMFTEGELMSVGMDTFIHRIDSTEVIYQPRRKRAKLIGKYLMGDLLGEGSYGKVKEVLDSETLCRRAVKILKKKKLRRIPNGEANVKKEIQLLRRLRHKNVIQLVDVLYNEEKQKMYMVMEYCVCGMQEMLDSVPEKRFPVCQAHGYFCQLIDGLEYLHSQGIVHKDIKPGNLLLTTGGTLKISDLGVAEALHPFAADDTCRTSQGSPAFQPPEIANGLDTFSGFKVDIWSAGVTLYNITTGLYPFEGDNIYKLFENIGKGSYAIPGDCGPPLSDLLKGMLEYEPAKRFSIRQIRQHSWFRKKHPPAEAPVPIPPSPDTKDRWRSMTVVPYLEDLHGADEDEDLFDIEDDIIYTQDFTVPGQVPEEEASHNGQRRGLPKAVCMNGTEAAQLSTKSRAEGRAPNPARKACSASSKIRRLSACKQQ
Chain of UniProt O15164 (whole entry, looked up): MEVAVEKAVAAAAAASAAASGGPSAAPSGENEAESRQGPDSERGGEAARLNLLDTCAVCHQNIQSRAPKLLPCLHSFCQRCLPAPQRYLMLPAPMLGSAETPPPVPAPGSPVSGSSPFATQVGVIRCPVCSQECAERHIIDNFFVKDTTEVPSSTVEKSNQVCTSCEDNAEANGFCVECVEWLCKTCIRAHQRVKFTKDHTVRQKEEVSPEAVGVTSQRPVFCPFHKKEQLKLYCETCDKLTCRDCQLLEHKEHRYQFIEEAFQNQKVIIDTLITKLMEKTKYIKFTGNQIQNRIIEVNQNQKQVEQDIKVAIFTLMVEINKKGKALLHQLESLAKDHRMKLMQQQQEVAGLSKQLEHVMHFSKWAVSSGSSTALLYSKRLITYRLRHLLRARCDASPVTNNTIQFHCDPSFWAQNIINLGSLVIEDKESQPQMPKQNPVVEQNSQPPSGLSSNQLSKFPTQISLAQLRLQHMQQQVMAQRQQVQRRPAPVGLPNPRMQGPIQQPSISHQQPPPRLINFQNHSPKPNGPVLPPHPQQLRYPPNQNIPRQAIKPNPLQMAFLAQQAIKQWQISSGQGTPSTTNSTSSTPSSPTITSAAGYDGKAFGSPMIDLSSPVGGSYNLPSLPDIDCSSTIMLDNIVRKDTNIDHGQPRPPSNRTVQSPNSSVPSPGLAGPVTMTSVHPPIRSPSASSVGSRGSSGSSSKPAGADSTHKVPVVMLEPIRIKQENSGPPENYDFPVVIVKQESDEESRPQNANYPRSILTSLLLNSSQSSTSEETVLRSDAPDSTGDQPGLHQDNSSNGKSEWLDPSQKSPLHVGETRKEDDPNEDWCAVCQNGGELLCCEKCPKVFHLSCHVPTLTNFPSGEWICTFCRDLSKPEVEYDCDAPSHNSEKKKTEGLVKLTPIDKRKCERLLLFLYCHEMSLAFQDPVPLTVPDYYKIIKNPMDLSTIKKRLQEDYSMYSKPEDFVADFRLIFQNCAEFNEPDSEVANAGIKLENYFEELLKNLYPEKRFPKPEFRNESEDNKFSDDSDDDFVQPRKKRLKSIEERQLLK
Chain of UniProt Q04609 (whole entry, looked up): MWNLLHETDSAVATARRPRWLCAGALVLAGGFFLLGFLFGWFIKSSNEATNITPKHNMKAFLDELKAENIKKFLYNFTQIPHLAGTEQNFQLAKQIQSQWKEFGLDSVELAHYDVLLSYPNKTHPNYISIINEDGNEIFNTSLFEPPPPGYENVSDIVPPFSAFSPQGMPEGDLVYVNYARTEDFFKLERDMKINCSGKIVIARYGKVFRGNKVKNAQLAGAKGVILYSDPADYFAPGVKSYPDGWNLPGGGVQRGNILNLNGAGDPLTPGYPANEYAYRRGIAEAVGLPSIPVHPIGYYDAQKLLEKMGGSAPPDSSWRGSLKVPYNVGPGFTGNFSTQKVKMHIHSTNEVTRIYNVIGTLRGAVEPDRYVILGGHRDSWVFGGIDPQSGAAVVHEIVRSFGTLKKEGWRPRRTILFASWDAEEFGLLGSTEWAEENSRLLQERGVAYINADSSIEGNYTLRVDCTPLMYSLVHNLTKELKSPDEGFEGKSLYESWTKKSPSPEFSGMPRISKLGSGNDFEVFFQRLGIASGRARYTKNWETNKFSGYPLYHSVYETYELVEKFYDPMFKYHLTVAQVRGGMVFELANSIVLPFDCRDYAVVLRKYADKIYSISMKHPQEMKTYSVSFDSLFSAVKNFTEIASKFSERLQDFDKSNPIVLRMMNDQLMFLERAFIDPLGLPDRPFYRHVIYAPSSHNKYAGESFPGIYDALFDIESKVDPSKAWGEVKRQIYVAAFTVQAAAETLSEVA
Chain of UniProt P14618 (whole entry, looked up): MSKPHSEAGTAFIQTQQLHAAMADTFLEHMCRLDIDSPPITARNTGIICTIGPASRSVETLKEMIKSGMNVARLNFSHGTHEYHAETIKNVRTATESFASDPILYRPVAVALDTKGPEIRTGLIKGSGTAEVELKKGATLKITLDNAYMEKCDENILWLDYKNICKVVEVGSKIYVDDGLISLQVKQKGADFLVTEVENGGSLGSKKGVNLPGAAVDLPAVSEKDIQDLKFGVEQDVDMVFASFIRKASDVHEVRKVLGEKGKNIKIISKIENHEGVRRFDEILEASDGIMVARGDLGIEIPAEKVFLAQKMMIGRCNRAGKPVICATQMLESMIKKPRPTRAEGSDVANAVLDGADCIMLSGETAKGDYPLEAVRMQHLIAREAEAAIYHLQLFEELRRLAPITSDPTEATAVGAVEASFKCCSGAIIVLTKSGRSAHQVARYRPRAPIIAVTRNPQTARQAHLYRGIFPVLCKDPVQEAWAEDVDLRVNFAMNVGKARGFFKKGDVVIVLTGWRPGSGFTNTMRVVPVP
Chain of UniProt P02754 (whole entry, looked up): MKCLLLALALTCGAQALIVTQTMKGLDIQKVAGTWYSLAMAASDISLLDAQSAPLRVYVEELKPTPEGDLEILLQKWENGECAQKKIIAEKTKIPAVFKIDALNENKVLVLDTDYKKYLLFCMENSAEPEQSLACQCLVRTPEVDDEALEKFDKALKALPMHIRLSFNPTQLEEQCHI

For `CC(C)(O/N=C(\C(=O)N[C@@H]1C(=O)N2C(C(=O)[O-])=C(C[n+]3ccccc3)CS[C@H]12)c1csc(N)n1)C(=O)O`, the Km was 729 ± 58 µM (beta-lactamase RAD-1 (Riemerella anatipestifer); substrate, continuous spectrophotometric hydrolysis; 30 °C).
With `CNc1ccc(-c2nc3ccc(O)cc3s2)cc1` the inhibition was 79.3% and 81.7% (Amyloid-beta precursor protein, amyloid-beta (APP, Homo sapiens, UniProt P05067); binding, competition binding; amyloid-beta aggregates; 500 nM, with: tritiated amyloid ligand).
`CC[C@@H]1[C@H](F)C(=O)N[C@@H]1COc1nccc2cc(C(N)=O)c(OC)cc12` has an inhibition of 12.2% (Serine/threonine-protein kinase STK11 (STK11, Homo sapiens, UniProt Q15831); ATP-site probe binding, ActivX profiling; THP-1 cell lysate; 0.04 mM, Lys2 site).
For `NS(=O)(=O)c1ccc(Nc2nc(-c3ccc(F)cc3)c3ccccc3n2)cc1`, the remaining binding was 74% (Transcription intermediary factor 1-alpha, PHD-bromodomain (TRIM24, Homo sapiens, UniProt O15164); BROMOscan; 1000 nM; relative to: untreated control, lower = stronger binding).
`CC[C@H](C)[C@H](NC(=O)[C@H](Cc1ccccc1)NC(=O)[C@H](CCC(=O)O)NC(=O)[C@H](CCCNC(=N)N)NC(=O)[C@H](C)NC(=O)[C@H](C)NC(=O)[C@H](CCC(N)=O)NC(=O)[C@H](CCC(=O)O)NC(=O)[C@H](CCC(=O)O)NC(=O)[C@H](CC(C)C)NC(=O)[C@H](Cc1ccc(O)cc1)NC(=O)[C@H](CO)NC(=O)[C@H](CO)NC(=O)[C@@H](NC(=O)[C@H](CC(=O)O)NC(=O)[C@H](CO)NC(=O)[C@@H](NC(=O)[C@H](Cc1ccccc1)NC(=O)[C@@H](NC(=O)CNC(=O)[C@H](CCC(=O)O)NC(=O)[C@H](C)NC(=O)CCc1cnc[nH]1)[C@@H](C)O)[C@@H](C)O)C(C)C)C(=O)N[C@@H](C)C(=O)N[C@@H](Cc1c[nH]c2ccccc12)C(=O)N[C@@H](CC(C)C)C(=O)N[C@H](C(=O)N[C@@H](CCCCNC(=O)COCCOCCNC(=O)COCCOCCNC(=O)CC[C@H](NC(=O)CCCCCCCCCCCCCCCCC(=O)O)C(=O)O)C(=O)NCC(=O)N[C@@H](CCCNC(=N)N)C(=O)N[C@@H](CCCCNc1c(NCCCCCN(O)C(=O)CCC(=O)NCCCCCN(O)C(=O)CCC(=O)NCCCCCN(O)C(C)=O)c(=O)c1=O)C(=O)NCC(=O)NCC(=O)N[C@@H](CO)C(=O)N[C@@H](CCCCNc1c(NCCCCCN(O)C(=O)CCC(=O)NCCCCCN(O)C(=O)CCC(=O)NCCCCCN(O)C(C)=O)c(=O)c1=O)C(=O)NCC(=O)NCC(=O)N[C@@H](CO)C(=O)N[C@@H](CCCCNc1c(NCCCCCN(O)C(=O)CCC(=O)NCCCCCN(O)C(=O)CCC(=O)NCCCCCN(O)C(C)=O)c(=O)c1=O)C(=O)NCC(=O)NCC(=O)N[C@@H](CO)C(=O)N[C@@H](CCCCNc1c(NCCCCCN(O)C(=O)CCC(=O)NCCCCCN(O)C(=O)CCC(=O)NCCCCCN(O)C(C)=O)c(=O)c1=O)C(=O)O)C(C)C`: “fold potency loss” 5.3 (Glucagon-like peptide 1 receptor (GLP1R, Homo sapiens, UniProt P43220); agonist, CRE luciferase reporter; BHK cells; metal-free DFO conjugate, with: 0% HSA; relative to: parent peptide).
With `CC1=C[C@H](O)CC(C)(C)[C@H]1/C=C/C(C)=C/C=C/C(C)=C/C=C/C=C(C)/C=C/C=C(C)/C=C/C1=C(C)C[C@@H](O)CC1(C)C` the fluorescence decrease was 23.2% (Beta-lactoglobulin (LGB, Bos taurus, UniProt P02754); intrinsic fluorescence; 298 K; relative to: protein alone).
The kon of `C=CC(=O)N1CCN(c2nc(OC[C@@H]3CCCN3C)nc3c(F)c(-c4nc(N)cc(C)c4C(F)(F)F)c(Cl)cc23)[C@@H](C)C1` is reported as 137000 ± 6800 M⁻¹ s⁻¹ (GTPase KRas, GDP-bound (KRAS, Homo sapiens, UniProt P01116)).
With `O=C(COP(=O)(O)O)[C@@H](O)[C@H](O)[C@H](O)COP(=O)(O)O` the enzyme activity was 71.9 and 80.3 and 64.6 (Phosphoglycerate mutase 1 (Homo sapiens, UniProt P18669); 0.625 mM, unit not given; relative to: activity at 10 mM set to 100).
`O=C(COP(=O)(O)O)[C@@H](O)[C@H](O)[C@H](O)COP(=O)(O)O`: “concentration reversing inhibition completely” 571 ± 132 nM (Pyruvate kinase PKM (PKM, Homo sapiens, UniProt P14618); pyruvate kinase activity, activator; SK-HEP1 cell lysate; with: AIM).
`CC1(C)CN(CCCCC(=O)N[C@@H](CCC(=O)O)C(=O)N[C@@H](CCC(=O)O)C(=O)N[C@H](CCCCNC(=O)CCCCCCC(=O)NCCCC[C@H](NC(=O)N[C@@H](CCC(=O)O)C(=O)O)C(=O)O)C(=O)O)CC[N]2CC(C)(C)[S][Tc]2(=[O])[S]1` (stereo partly shown) [technetium-99m labelled] has a Bmax of 10 µmol/mg (Glutamate carboxypeptidase 2 (FOLH1, Homo sapiens, UniProt Q04609); saturation binding; LNCaP).

Some of these lines once more:
For `NS(=O)(=O)c1ccc(Nc2nc(-c3ccc(F)cc3)c3ccccc3n2)cc1`, the remaining binding was 74% (Transcription intermediary factor 1-alpha, PHD-bromodomain (TRIM24, Homo sapiens, UniProt O15164); BROMOscan; 1000 nM; relative to: untreated control, lower = stronger binding).
`CC[C@H](C)[C@H](NC(=O)[C@H](Cc1ccccc1)NC(=O)[C@H](CCC(=O)O)NC(=O)[C@H](CCCNC(=N)N)NC(=O)[C@H](C)NC(=O)[C@H](C)NC(=O)[C@H](CCC(N)=O)NC(=O)[C@H](CCC(=O)O)NC(=O)[C@H](CCC(=O)O)NC(=O)[C@H](CC(C)C)NC(=O)[C@H](Cc1ccc(O)cc1)NC(=O)[C@H](CO)NC(=O)[C@H](CO)NC(=O)[C@@H](NC(=O)[C@H](CC(=O)O)NC(=O)[C@H](CO)NC(=O)[C@@H](NC(=O)[C@H](Cc1ccccc1)NC(=O)[C@@H](NC(=O)CNC(=O)[C@H](CCC(=O)O)NC(=O)[C@H](C)NC(=O)CCc1cnc[nH]1)[C@@H](C)O)[C@@H](C)O)C(C)C)C(=O)N[C@@H](C)C(=O)N[C@@H](Cc1c[nH]c2ccccc12)C(=O)N[C@@H](CC(C)C)C(=O)N[C@H](C(=O)N[C@@H](CCCCNC(=O)COCCOCCNC(=O)COCCOCCNC(=O)CC[C@H](NC(=O)CCCCCCCCCCCCCCCCC(=O)O)C(=O)O)C(=O)NCC(=O)N[C@@H](CCCNC(=N)N)C(=O)N[C@@H](CCCCNc1c(NCCCCCN(O)C(=O)CCC(=O)NCCCCCN(O)C(=O)CCC(=O)NCCCCCN(O)C(C)=O)c(=O)c1=O)C(=O)NCC(=O)NCC(=O)N[C@@H](CO)C(=O)N[C@@H](CCCCNc1c(NCCCCCN(O)C(=O)CCC(=O)NCCCCCN(O)C(=O)CCC(=O)NCCCCCN(O)C(C)=O)c(=O)c1=O)C(=O)NCC(=O)NCC(=O)N[C@@H](CO)C(=O)N[C@@H](CCCCNc1c(NCCCCCN(O)C(=O)CCC(=O)NCCCCCN(O)C(=O)CCC(=O)NCCCCCN(O)C(C)=O)c(=O)c1=O)C(=O)NCC(=O)NCC(=O)N[C@@H](CO)C(=O)N[C@@H](CCCCNc1c(NCCCCCN(O)C(=O)CCC(=O)NCCCCCN(O)C(=O)CCC(=O)NCCCCCN(O)C(C)=O)c(=O)c1=O)C(=O)O)C(C)C`: “fold potency loss” 5.3 (Glucagon-like peptide 1 receptor (GLP1R, Homo sapiens, UniProt P43220); agonist, CRE luciferase reporter; BHK cells; metal-free DFO conjugate, with: 0% HSA; relative to: parent peptide).
